Measurements of several laboratories.
Parts stem from different laboratories: compare values within a part only. “And” joins repeats or separate records; there may be more than shown.
UniProt P10721, sequence (whole entry, unmodified, looked up): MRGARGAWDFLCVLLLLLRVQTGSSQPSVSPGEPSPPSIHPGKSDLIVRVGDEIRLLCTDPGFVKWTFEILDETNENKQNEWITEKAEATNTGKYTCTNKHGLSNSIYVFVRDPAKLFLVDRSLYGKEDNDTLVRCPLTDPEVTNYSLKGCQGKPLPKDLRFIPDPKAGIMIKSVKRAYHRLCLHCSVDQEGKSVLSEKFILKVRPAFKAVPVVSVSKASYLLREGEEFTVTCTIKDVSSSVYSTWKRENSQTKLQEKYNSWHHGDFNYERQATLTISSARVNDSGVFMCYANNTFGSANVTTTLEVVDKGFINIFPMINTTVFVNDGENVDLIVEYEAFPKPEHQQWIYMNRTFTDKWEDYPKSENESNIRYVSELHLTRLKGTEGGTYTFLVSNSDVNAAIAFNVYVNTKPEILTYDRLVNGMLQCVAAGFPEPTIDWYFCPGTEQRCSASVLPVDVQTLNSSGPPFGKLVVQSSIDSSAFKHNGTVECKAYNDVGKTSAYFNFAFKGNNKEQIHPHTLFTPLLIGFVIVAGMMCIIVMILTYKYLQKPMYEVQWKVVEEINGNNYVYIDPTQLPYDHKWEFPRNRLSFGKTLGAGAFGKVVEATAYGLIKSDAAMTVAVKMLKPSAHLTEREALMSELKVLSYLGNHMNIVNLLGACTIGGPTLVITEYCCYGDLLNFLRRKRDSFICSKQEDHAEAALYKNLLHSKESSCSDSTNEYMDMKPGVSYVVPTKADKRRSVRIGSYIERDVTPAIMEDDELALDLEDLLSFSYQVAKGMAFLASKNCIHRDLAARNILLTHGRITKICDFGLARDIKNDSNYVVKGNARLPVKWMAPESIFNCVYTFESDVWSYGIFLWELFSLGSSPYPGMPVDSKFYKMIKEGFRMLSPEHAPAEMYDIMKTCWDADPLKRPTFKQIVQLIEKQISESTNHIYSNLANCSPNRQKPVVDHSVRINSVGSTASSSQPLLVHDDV
UniProt Q15759, sequence (whole entry, looked up): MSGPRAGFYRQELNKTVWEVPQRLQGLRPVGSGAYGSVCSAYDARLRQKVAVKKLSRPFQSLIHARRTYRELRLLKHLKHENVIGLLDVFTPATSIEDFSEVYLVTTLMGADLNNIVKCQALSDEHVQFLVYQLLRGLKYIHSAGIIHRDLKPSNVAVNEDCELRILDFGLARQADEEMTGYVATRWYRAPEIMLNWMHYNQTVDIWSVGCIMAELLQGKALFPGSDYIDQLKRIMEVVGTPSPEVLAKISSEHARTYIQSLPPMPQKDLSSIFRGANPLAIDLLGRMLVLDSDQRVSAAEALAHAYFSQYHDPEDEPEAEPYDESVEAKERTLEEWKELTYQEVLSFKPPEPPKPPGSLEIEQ
UniProt P31751, sequence (whole entry, looked up): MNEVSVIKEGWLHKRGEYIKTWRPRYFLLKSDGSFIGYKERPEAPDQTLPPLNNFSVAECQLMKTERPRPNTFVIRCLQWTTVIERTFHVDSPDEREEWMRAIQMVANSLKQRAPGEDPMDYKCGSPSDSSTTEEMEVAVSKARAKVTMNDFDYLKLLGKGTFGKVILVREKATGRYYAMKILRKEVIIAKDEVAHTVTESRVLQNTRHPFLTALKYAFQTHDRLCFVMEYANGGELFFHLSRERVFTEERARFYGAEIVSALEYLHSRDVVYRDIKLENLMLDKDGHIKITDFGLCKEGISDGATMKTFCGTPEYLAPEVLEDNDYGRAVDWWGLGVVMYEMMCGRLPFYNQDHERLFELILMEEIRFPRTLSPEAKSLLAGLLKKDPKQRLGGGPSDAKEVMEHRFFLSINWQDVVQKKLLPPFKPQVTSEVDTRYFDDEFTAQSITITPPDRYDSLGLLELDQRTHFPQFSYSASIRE
UniProt Q16566, sequence (whole entry, looked up): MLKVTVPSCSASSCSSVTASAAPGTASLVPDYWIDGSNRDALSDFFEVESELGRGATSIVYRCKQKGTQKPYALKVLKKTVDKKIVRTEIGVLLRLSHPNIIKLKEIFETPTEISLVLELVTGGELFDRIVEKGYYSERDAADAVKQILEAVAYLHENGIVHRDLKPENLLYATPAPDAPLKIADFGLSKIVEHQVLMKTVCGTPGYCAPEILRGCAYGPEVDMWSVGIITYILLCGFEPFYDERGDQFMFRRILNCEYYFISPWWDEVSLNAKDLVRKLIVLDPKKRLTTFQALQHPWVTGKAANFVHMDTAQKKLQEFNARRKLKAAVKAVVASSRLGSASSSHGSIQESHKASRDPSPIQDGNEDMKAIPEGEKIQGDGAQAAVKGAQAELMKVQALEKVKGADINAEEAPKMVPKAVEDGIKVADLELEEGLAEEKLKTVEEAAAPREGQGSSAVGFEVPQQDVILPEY
UniProt P50750, sequence (whole entry, looked up): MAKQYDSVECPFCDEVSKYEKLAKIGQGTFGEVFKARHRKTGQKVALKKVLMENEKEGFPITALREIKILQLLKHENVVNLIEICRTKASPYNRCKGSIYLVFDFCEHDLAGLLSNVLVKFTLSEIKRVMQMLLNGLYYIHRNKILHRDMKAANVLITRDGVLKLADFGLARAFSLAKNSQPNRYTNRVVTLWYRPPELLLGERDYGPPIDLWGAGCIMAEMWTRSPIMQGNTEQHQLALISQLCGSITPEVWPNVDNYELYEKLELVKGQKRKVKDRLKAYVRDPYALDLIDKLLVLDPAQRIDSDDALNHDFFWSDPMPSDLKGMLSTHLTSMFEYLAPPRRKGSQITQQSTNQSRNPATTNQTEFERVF
UniProt Q16539, sequence (whole entry, looked up): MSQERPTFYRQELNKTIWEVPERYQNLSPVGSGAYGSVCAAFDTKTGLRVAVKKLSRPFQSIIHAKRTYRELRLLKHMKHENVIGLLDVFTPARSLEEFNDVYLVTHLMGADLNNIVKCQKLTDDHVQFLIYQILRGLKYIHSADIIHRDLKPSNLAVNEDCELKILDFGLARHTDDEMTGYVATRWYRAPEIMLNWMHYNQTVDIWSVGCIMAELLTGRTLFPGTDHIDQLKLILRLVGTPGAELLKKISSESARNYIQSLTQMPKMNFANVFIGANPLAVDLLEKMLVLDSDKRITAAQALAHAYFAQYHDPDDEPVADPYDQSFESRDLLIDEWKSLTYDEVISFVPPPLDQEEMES
UniProt P51956, sequence (whole entry, looked up): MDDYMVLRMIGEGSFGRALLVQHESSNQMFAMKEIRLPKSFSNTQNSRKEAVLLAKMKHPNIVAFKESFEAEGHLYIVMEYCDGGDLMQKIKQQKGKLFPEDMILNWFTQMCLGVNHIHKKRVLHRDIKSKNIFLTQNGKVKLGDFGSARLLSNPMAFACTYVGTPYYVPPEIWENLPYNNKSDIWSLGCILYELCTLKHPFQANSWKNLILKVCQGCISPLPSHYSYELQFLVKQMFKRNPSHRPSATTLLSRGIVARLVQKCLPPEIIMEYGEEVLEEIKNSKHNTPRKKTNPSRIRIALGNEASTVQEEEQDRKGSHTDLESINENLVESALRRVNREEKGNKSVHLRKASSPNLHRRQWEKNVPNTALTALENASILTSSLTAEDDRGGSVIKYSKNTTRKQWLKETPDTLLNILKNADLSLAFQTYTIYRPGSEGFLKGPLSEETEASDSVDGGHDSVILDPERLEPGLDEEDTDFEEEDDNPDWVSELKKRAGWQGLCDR
UniProt Q9HAZ1, sequence (whole entry, looked up): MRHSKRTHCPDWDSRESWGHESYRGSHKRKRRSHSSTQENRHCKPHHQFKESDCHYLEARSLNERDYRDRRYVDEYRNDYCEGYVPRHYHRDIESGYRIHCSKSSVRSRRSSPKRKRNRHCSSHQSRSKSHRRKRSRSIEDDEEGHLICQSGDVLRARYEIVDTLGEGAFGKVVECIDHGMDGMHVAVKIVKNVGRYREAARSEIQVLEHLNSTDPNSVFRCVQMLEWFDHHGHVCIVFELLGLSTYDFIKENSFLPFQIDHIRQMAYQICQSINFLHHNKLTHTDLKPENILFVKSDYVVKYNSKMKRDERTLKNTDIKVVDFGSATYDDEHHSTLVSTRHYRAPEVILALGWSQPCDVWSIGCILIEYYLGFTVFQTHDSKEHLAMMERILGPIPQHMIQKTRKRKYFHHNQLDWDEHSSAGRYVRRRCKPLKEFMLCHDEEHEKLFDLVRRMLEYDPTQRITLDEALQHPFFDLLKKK

Set 1
Species: mouse
Matrix: microsomes or S9
Concentration: 2 µM
Time: 0.5 h
| SMILES | remaining compound [%] |
| --- | --- |
| Cc1ccn(CCC(=O)N(Cc2ccncc2)Cc2cccc(OCCc3ccc(F)cc3)c2)n1 | 2.41 |
| COC(=O)Cn1c(=O)cc(C)c2c(OC)ccc(OC)c21 | 0.11 |
| c1csc(COc2ccc(CNn3cnnc3)cc2)c1 | 56 |
| O=c1ccn(-c2ccc(Cl)c(-c3ccc(Cl)cc3)c2)[nH]1 | 43.3 |
| CCOCCCN1C(=O)CN(S(C)(=O)=O)CC1(C)C(=O)NCc1ccc(C)cc1 (centres unmarked) | 45.9 |
| COc1ccc(-c2n[nH]c(-c3ccccn3)n2)cc1 | 4.5 |

Set 2
Cell line: mouse MPNST tumor cells
Method: high-content nuclear imaging
Item: cell number
Concentration: 10 µM
Time: 12 h
Notes: mean of 2 replicates
Baseline: plate mean
Direction: higher = more cells
| Structure (SMILES) | nuclei count |
| --- | --- |
| CNC1CCC(N(Cc2cc(-c3ccncc3)ccc2OC)C(=O)c2sc3c(F)ccc(F)c3c2Cl)CC1 (centres unmarked) | -5.43 z-score |
| N[C@@H](Cn1ccc(=O)n(Cc2ccccc2C(=O)O)c1=O)C(=O)O | -0.09 z-score |
| CC(C)C(=O)c1c(C(C)C)nn2ccccc12 | 1.37 z-score and 1.59 z-score |
| COc1cc(C)c(/C=C/C(C)=C/C=C/C(C)=C/C(=O)O)c(C)c1C | 0.103 z-score |

Set 3
SMILES: Nc1[nH]nc2nnc(-c3c(-c4ccccc4)nn4ccccc34)cc12
Observed: enzyme activity
Mode: inhibitor
Concentration: 0.5 µM
Baseline: control
| target | remaining activity [%] |
| --- | --- |
| CAMK4 (Homo sapiens, UniProt Q16566) | 94.2 |
| DDR2 (Homo sapiens, UniProt Q16832) | 101 |
| MINK1 (Homo sapiens, UniProt Q8N4C8) | 73 |
| PLK3 (Homo sapiens, UniProt Q9H4B4) | 100 |
| CLK4 (Homo sapiens, UniProt Q9HAZ1) | 101 |
| NEK3 (Homo sapiens, UniProt P51956) | 82.7 |
| MAPK11 (Homo sapiens, UniProt Q15759) | 90 |
| ROCK1 (Homo sapiens, UniProt Q13464) | 100 |
| MAPK14 (Homo sapiens, UniProt Q16539) | 94.6 |
| CLK3 (Homo sapiens, UniProt P49761) | 94.9 |
| AKT2 (Homo sapiens, UniProt P31751) | 97.5 |
| Cyclin-dependent kinase 9, with cyclin K (CDK9, Homo sapiens, UniProt P50750) | 98.5 |
| MARK2 (Homo sapiens, UniProt Q7KZI7) | 104 |

Set 4
Compound: c1ccc(N2CCN(Cc3nc4ccccc4[nH]3)CC2)nc1
Method: competition with immobilised ligand
Concentration: 1 µM
| target | test | remaining binding [%] |
| --- | --- | --- |
| Mast/stem cell growth factor receptor Kit, autoinhibited (KIT, Homo sapiens, UniProt P10721) | binding | 100 |
| PRPF4B (Homo sapiens, UniProt Q13523) | cell-free assay | 57 |
| Receptor-type tyrosine-protein kinase FLT3, autoinhibited (FLT3, Homo sapiens, UniProt P36888) | binding | 100 |
| GAK (Homo sapiens, UniProt O14976) | binding | 100 |
| KIT (Homo sapiens, UniProt P10721, V559D/V654A) | binding | 100 |

Single results of other studies
| SMILES | target | test | setting | measurement | value |
| --- | --- | --- | --- | --- | --- |
| O=C(O)C1=CC(=C(c2ccc(O)c(C(=O)O)c2)c2ccc(O)c(C(=O)O)c2)C=CC1=O | DNA polymerase theta, ATPase domain (POLQ, Homo sapiens, UniProt O75417) | ATPase activity, inhibitor, ADP-Glo luminescence | 77 µM, mean of duplicates | remaining activity | 5.88% |

Excerpt of the above (set 1):
| SMILES | remaining compound [%] |
| --- | --- |
| Cc1ccn(CCC(=O)N(Cc2ccncc2)Cc2cccc(OCCc3ccc(F)cc3)c2)n1 | 2.41 |
| COC(=O)Cn1c(=O)cc(C)c2c(OC)ccc(OC)c21 | 0.11 |
| c1csc(COc2ccc(CNn3cnnc3)cc2)c1 | 56 |
| O=c1ccn(-c2ccc(Cl)c(-c3ccc(Cl)cc3)c2)[nH]1 | 43.3 |
